Experimental data from different studies.
Parts stem from different laboratories: compare values within a part only. Changes are numbered by the printed parent chain.

Study 1
Target: CCNE2, cyclin fold, Cln2 fusion (human)
Technique: yeast growth competition, sequencing
Sample: yeast
Setting: weak parent motif
Baseline: not given
Reading: higher = stronger binding
Parent: MASTL docking peptide (human); PMIAKNLMCELDE; partner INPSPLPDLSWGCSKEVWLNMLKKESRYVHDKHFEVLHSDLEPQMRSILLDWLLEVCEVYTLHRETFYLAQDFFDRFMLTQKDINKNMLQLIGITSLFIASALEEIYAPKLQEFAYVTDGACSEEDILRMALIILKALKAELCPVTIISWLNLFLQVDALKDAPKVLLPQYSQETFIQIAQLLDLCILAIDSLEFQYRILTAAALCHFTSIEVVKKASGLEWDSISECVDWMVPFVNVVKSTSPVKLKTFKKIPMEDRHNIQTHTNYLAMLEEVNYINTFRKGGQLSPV
For `PMIAKLLMCELDE [N6L]`, “normalised enrichment score” read -0.00102.
Under “normalised enrichment score”, `PMIAKNLMRELDE [C9R]` is recorded as 0.182.
For `PMIWKNLMCELDE [A4W]`, “normalised enrichment score” read 0.308.
`PMIAKNLMCELTE [D12T]`: “normalised enrichment score” 0.015.
Under “normalised enrichment score”, `PMIAKNLKCELDE [M8K]` is recorded as 0.0352.
For `PMIAKNLMVELDE [C9V]`, “normalised enrichment score” read -0.0904.
`PMIAKPLMCELDE [N6P]`: “normalised enrichment score” 0.00626.
For `PMIAKNLMKELDE [C9K]`, “normalised enrichment score” read -0.131.
For `PMIAKNLMCEQDE [L11Q]`, “normalised enrichment score” read 0.166.
For `PMIAKNLMCSLDE [E10S]`, “normalised enrichment score” read -0.294.
`PMIAKNSMCELDE [L7S]` — result for “normalised enrichment score”: -0.0187.
`PMGAKNLMCELDE [I3G]`: “normalised enrichment score” 0.292.
`PMFAKNLMCELDE [I3F]` — result for “normalised enrichment score”: -0.118.

Study 2
Target: Sal-like protein 4, full length isoform A (SALL4, Homo sapiens, UniProt Q9UJQ4, residues 1-1053)
Sequence of UniProt Q9UJQ4 (whole entry, looked up): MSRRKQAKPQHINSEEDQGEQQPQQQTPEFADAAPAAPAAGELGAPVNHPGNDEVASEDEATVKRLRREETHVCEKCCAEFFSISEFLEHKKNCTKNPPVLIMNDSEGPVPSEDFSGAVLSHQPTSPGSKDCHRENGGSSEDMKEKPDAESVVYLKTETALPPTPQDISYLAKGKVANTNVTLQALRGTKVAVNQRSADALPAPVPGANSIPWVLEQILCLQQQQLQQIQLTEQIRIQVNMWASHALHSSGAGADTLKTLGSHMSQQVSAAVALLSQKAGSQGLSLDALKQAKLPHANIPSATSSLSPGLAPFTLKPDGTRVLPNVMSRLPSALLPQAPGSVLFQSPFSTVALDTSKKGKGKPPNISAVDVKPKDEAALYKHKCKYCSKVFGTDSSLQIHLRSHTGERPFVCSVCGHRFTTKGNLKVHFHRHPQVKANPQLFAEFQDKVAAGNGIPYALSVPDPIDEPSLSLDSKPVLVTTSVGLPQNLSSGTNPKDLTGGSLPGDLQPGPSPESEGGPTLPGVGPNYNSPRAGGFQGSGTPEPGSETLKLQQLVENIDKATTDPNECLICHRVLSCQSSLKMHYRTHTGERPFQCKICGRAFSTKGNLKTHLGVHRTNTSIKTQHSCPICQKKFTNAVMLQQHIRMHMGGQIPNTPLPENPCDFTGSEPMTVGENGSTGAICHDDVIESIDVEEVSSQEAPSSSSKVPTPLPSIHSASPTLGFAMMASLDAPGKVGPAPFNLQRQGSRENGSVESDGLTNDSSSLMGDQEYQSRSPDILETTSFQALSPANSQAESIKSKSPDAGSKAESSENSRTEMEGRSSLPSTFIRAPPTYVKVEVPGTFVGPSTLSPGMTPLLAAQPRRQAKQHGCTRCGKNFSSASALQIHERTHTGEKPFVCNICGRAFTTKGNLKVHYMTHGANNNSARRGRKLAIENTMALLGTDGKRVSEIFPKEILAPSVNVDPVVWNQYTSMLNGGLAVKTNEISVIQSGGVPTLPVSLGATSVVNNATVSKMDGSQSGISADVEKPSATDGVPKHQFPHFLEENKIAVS
Technique: universal PBM
Molecule type: double-stranded DNA, one strand shown
Sample: in vitro
Concentration: 600 nM
Setting: 8-mer, flanks averaged, mean of replicates
Reading: higher = stronger binding
`ATCTATGC` has an E-score of 0.103.
`CAAATGAC` has an E-score of 0.0448.
The E-score of `GTGACGTA` is reported as 0.00543.
The E-score of `CGGGAGGA` is reported as -0.257.
The E-score of `AATCAGCC` is reported as -0.187.
For `CTCCGCCA`, the E-score was -0.24.
For `ACGGATCG`, the E-score was -0.214.
`CGACCGGC` has an E-score of -0.323.
The E-score of `ATCGTAGG` is reported as 0.029.
`AAGTAGAA` has an E-score of 0.216.
For `AGAAAGAA`, the E-score was 0.209.

Study 3
Target: Centromere-binding protein 1, full length, His-tagged (CBF1, Saccharomyces cerevisiae, UniProt P17106, residues 1-351)
Sequence of UniProt P17106 (whole entry, looked up): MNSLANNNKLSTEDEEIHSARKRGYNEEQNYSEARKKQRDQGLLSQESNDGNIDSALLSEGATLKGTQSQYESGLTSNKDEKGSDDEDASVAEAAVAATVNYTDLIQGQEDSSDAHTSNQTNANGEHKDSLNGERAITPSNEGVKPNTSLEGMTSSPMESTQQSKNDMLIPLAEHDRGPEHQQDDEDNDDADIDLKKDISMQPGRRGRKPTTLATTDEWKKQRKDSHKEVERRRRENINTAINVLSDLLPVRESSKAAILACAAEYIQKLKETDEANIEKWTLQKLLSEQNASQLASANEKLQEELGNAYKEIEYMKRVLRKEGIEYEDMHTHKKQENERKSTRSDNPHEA
Technique: competition protein-binding microarray
Molecule type: double-stranded DNA, one strand shown
Sample: in vitro
Concentration: 2 µM
Setting: whole 60-bp probe, lowest competitor level
With: Pho4 competitor, 0.05 µM
Reading: higher = stronger binding
All sequences stand within: … GTCTTGATTCGCTTGACGCTGCTG
For `CGGGGTTAAGTTTGGGGAGTGGGTGGCTTGCAGCAG`, the fluorescence intensity was 86.9 a.u.
With `TTCCAAATCTTTCCGAAAAAAATTCTCTAGCGGATT` the fluorescence intensity was 64.4 a.u.
With `TCTCTCATTATTCCCACCGTGTCCTCAATCTCTTGT` the fluorescence intensity was 56.5 a.u.
`AAAGCGGTAATTTTTCACGTGCCCTCACATATCTAT` gave a fluorescence intensity of 1260 a.u.
`GTAAATGAGGCCCATCACGCTGACTCACTCGGTCCG` gave a fluorescence intensity of 103 a.u.
`GTCTTGTCTCATTGACTTGTGGGTGTCCCCACTTCA` gave a fluorescence intensity of 96.8 a.u.
With `AAAGTTGGGTGTCTGCGTGTGTGTATGTTTCCAATT` the fluorescence intensity was 71.3 a.u.
`CAAGTTGTCTTTCAGCACATGGAGAGGTGGGAGTGC` has a fluorescence intensity of 71.5 a.u.
With `CTTCTGTAAATTTGAGTGGTGGGTGGACGCGCCCCG` the fluorescence intensity was 85.8 a.u.
`CATACCCAACCTTGGACCGTGGGTGAAGATATTTGT` gave a fluorescence intensity of 70.9 a.u.
For `CTTTCCCGATCTTGTGGCGTGGGTGTAGCACATTTG`, the fluorescence intensity was 65.5 a.u.
`TTTCGATGGTTAGGCTTCGTGGGTAAAAAGTCGAGC` gave a fluorescence intensity of 68.2 a.u.

Further values, each from its own experiment
The fold induction of `PhoQ, residues 284 288 289 292 302 303 SLKLQV` is reported as 9.15 (PhoP, residues 12 14 15 18 19 LWHSL (Escherichia coli, UniProt P23836); Sort-seq, item: YFP reporter; E. coli; PhoQ-PhoP variant library, with: 10 µM Mg2+; baseline: high Mg2+ state, higher = stronger signaling).
